# Assay results of several laboratories.
# A part holds a random share of what one study measured.

# Sample 1
# Target: Protein max, full length (MAX, Homo sapiens, UniProt P61244-2, residues 1-151)
# Method: protein-binding microarray
# Form: double-stranded DNA, one strand shown
# Sample: in vitro
# Tested at: not given
# Setting: k-mer, scored over probes, only values ≥0.25
# Reading: higher = stronger binding
Oligonucleotide,E-score
ATGTGGTC,0.339
GCATGGCC,0.408
CTCCACGC,0.392
CGTGTTAC,0.349
CACGTTTA,0.358
CGCACCCC,0.288

# Sample 2
# Target: RNA binding protein fox-1 homolog 2, RRM domain, GST-SBP tag (RBFOX2, Homo sapiens, UniProt O43251-10, residues 100-194)
# Method: RNA Bind-n-Seq
# Form: RNA
# Sample: in vitro
# Tested at: 365 nM
# Setting: natural RNA segment, single round, ends assumed
# Reference: no-protein control
# Reading: higher = stronger binding
# Residues (chain): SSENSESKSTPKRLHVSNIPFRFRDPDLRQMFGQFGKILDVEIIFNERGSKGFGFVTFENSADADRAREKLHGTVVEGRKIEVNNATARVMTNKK
Oligonucleotide,RBNS enrichment (R)
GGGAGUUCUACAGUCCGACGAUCGUCACACUGGAAAUUGUACAUUUUUUUAAAGAAAAGGUAUAGUUUUAUAACUGAGAUGUACCUAAAUUAUGACCAUUUGGUUUAUGAAUAUUCUACUGUGACAUGAAAAGUGGAAUUCUCGGGUGCCAA,0.473
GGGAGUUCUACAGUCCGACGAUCGAUCACUGAGACAGCCACUUGGUUUUUGGCUCUUUCAGAGAGGUCUCAGGUUCUUUCCAUGCAGACUCCUCAGAUCUGAACACAGUUUAGUGCUUUACAUGCUGUGCUCUUGGAAUUCUCGGGUGCCAA,0.497
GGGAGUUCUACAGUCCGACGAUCGCUCCCCAUUGAUUGAAGAGUCACUGUCUGAAAGAAGCAAAGUUCAGUUUCAGCAACAAACAAACUUUGUUUGGGAAGCUAUGGAGGAGGACUUUUAGAUUUAGUGAAGAUGGAAUUCUCGGGUGCCAA,0.945
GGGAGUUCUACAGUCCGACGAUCUAGACUUUUGAAGUGUUUGUGUUUUAAUUUAAUAUGUUUAUAAGCAUGUAUAAACAUUUAGCAUAUUUUUAUCAUAGGUCUAAAAAUAUUUGUUUACUAAAUACCUGUGAUGGAAUUCUCGGGUGCCAA,57.4
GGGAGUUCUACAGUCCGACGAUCGCCAAGAACUCUUGGUUAUCCGCACAAGCUGCUGGUAGACUACAUUAGCCCUCUGGUUUUCCAGCUCAACCUCUGAUAAAGUGGACUGAGAGCCACGCUGCUCAGUCUGUUGGAAUUCUCGGGUGCCAA,0.329
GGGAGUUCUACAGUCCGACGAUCCUUCCAGCUCACCUUGAGCAGCCUCAGAUCAUCUCUGUCACUCUGGAAGGGACACCCCAGCCAGGGACGGAAUGCCUGGUCUUGAGCAACCUCCCACUGCUGGAGUGCGAUGGAAUUCUCGGGUGCCAA,0.426
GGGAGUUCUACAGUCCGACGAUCUCUGCUGGUCAGAGAUGAAGCCACGCCUUUCCAUUUUUCAAUGCUGCAUAUUUAAUCUGCAACAAAAAUGUUAAGCCAUAACAGCCUUUUUAUAUUUUAGUUUGUCACCUUGGAAUUCUCGGGUGCCAA,0.716
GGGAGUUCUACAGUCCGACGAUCAAAACAAAACAUAUUAAUGGUAUUGAAAUGUGUUAGUAGUCUGGCUGUGUGCCCAAAAUUCUGUUUCGCAGCAAAAGUGAAGACCUGUAUGUAAAGAAAGUAUAACAAUUUGGAAUUCUCGGGUGCCAA,1.48

# Sample 3
# Target: Replicase polyprotein 1ab, main protease (rep, Severe acute respiratory syndrome coronavirus 2, UniProt P0DTD1)
# Observed: enzyme activity
# Mode: inhibitor
# Tested at: 20 µM
# Setting: primary screen
SMILES,inhibition [%]
C=C1C(=O)O[C@@H]2[C@H]3O[C@]3(C)CC/C=C(\C)CC[C@@H]12,43.9
COc1cc(-c2ccc(/N=N/c3ccc4c(S(=O)(=O)O)cc(S(=O)(=O)O)c(N)c4c3O)c(OC)c2)ccc1/N=N/c1ccc2c(S(=O)(=O)O)cc(S(=O)(=O)O)c(N)c2c1O,101
C/C(=N\NC(=N)N)c1cc(NC(=O)CCCCCCCCC(=O)Nc2cc(/C(C)=N/NC(=N)N)cc(/C(C)=N/NC(=N)N)c2)cc(/C(C)=N/NC(=N)N)c1,25.7

# Sample 4
# Cell line: HEK-293T/ACE2
# Tested at: concentration not given
# Time: 16 (unit not given)
# Reference: vehicle
Structure (SMILES),viability
O=c1ccn([C@@H]2O[C@H](CO)[C@@H](O)[C@H]2O)c(=O)[nH]1,104%
CNS(=O)(=O)Cc1ccc2[nH]cc(CCN(C)C)c2c1,97.8%
CC1(C)O[C@@H]2C[C@H]3[C@@H]4CCC5=CC(=O)CC[C@]5(C)[C@@]4(F)[C@@H](O)C[C@]3(C)[C@]2(C(=O)CCl)O1,94.8%
C#C[C@]1(O)CC[C@H]2[C@@H]3CCC4=CC(=O)CC[C@@H]4[C@H]3CC[C@@]21C,101%

# Sample 5
# Target: Sal-like protein 4, full length isoform A (SALL4, Homo sapiens, UniProt Q9UJQ4, residues 1-1053)
# Sequence of UniProt Q9UJQ4 (whole entry, looked up): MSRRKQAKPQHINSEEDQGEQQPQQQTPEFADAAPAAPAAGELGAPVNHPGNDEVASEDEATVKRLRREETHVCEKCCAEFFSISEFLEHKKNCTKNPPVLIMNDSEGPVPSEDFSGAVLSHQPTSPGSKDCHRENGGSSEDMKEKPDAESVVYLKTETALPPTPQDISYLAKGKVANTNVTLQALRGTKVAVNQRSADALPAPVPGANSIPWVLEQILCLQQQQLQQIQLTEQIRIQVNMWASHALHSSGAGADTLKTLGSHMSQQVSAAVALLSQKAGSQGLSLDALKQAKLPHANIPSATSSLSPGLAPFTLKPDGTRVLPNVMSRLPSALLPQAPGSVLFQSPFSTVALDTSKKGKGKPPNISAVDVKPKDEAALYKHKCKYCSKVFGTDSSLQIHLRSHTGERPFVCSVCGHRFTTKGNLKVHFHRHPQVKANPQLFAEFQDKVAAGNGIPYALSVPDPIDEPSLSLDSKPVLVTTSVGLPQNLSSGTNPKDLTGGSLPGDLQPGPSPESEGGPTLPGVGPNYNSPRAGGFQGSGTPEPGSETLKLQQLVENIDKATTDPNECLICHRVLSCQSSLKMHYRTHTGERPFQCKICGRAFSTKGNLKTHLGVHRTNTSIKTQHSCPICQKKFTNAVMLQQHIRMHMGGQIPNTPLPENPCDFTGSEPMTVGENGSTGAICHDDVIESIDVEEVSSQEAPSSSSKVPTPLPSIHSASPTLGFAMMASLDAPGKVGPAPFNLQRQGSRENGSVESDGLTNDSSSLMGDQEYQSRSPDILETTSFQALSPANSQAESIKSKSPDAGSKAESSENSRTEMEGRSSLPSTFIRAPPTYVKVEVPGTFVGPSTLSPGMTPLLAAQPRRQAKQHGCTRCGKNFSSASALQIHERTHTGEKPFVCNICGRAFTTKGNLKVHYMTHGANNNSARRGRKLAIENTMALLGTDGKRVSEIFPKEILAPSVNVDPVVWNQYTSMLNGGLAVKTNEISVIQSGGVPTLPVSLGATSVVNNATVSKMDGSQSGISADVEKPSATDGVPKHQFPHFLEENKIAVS
# Method: universal PBM
# Form: double-stranded DNA, one strand shown
# Sample: in vitro
# Tested at: 600 nM
# Setting: 8-mer, flanks averaged, mean of replicates
# Reading: higher = stronger binding
Oligonucleotide,E-score
ACAATTAG,0.154
ACCTAGAC,-0.105
CCTACACA,0.0611
AGCATTGG,0.0438
AGATGACT,0.0295
GTCTGGCA,-0.0863
CACGCCTA,-0.0549
AGAGCTAA,0.0228

# Sample 6
# Target: Replicase polyprotein 1ab, polymerase (rep, Severe acute respiratory syndrome coronavirus 2, UniProt P0DTD1)
# Observed: enzyme activity
# Mode: inhibitor
# Tested at: 20 µM
SMILES,inhibition
O=c1[nH]c2ccccc2n1CCN1CCN(c2cccc(C(F)(F)F)c2)CC1,3.09%
CCCCC(=O)O[C@]1(C(=O)CO)CC[C@H]2[C@@H]3CCC4=CC(=O)CC[C@]4(C)[C@H]3[C@@H](O)C[C@@]21C,-7.95%
CCN(CC)CCNC(=O)c1ccccc1I,-0.84%
O=C(Cc1cccc(OC(F)(F)F)c1)Nc1ccc(CCCCc2nnc(NC(=O)Cc3ccccn3)s2)nn1,-0.87%
COc1cc2ncnc(Nc3ccc(Cl)cc3F)c2cc1OC,0.18%
CCC(CC)Nc1cc(C)nc(Oc2c(C)cc(C)cc2C)c1C,0.09%
C[C@H](NC(=O)CNC(=O)c1cccc(Cl)c1)c1ccccc1,3.04%
CC(=O)[C@]1(N)Cc2c(O)c3c(c(O)c2[C@@H](O[C@H]2C[C@H](O)[C@H](O)CO2)C1)C(=O)c1ccccc1C3=O,12.5%
CC(=O)O[C@]1(C(C)=O)CC[C@H]2[C@@H]3C=C(C)C4=CC(=O)CC[C@@H]4[C@H]3CC[C@@]21C,-2.04%
O=C1c2ccccc2C(=O)C1c1ccc(Br)cc1,-10.1%
O=C(Cn1ccnc1[N+](=O)[O-])NCCO,1.89%
CCN(CC)CCCCNc1ncc2cc(-c3c(Cl)cccc3Cl)c(NC(=O)NC(C)(C)C)nc2n1,1.04%
CCC(C)c1ccc(NC(=O)Cn2cnc3c2c(=O)n(C)c(=O)n3C)cc1 (stereo not drawn),3.74%
C[C@@]1(C(=O)N[C@@H](CCC(=O)O)C(=O)O)CCCN1C(=O)CN,-4.74%
CC(C)N(CCC(=O)c1ccc2ccccc2c1)Cc1ccccc1,8.04%
Cc1cccc(/C=N/Nc2cc(N3CCOCC3)nc(OCCc3ccccn3)n2)c1,-6.14%
CCCCCCCCCCCCCCCC(=O)O[C@@H]1[C@@H](O)[C@@H](O)[C@@H]([C@H](NC(=O)[C@@H]2C[C@@H](CCC)CN2C)[C@H](C)Cl)O[C@@H]1SC,-7.88%
CC1(C)C(=O)N(CCN2CCC(C(=O)c3ccc(F)cc3)CC2)c2ccccc21,-0.07%
C1CCN2C[C@@H]3C[C@@H](CN4CCCC[C@@H]34)[C@H]2C1,2.73%
Cc1ccccc1N1CCN(CCc2nnc3n2CCCC3)CC1,-4.49%
Cn1c(NC[C@@H](N)Cc2ccccc2)nc(-c2ccncc2)c(-c2ccc3ccccc3c2)c1=O,5.9%
Cc1nc(-c2cccnc2)sc1C(=O)Nc1ccccc1-c1cn2c(CN3CCOCC3)csc2n1,-1.58%
CCOC(N)=O,-2.07%
N=C(N)SCCc1ccc(OCc2ccc([N+](=O)[O-])cc2)cc1,2.1%
Cc1cc(SCc2sc(-c3ccc(C(F)(F)F)c(F)c3)nc2C)ccc1OCC(=O)O,-0.65%
